Earlier results as cited in several papers.
Lines come from different studies, so protocols differ. ± marks the error that the study gave.

Protein sequences, listed by entry. Tags and fused reporters are not part of them.
UniProt P33534, whole entry: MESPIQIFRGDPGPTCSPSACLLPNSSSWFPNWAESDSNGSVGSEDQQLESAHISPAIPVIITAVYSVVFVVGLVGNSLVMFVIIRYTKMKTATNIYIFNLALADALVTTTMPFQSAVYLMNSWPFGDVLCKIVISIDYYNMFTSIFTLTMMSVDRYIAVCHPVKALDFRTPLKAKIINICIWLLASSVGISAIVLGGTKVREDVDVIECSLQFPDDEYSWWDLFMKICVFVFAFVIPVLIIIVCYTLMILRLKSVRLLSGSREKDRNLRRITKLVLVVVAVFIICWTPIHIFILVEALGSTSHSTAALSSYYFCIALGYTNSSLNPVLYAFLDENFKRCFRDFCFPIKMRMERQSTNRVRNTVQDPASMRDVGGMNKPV
UniProt P41595, whole entry: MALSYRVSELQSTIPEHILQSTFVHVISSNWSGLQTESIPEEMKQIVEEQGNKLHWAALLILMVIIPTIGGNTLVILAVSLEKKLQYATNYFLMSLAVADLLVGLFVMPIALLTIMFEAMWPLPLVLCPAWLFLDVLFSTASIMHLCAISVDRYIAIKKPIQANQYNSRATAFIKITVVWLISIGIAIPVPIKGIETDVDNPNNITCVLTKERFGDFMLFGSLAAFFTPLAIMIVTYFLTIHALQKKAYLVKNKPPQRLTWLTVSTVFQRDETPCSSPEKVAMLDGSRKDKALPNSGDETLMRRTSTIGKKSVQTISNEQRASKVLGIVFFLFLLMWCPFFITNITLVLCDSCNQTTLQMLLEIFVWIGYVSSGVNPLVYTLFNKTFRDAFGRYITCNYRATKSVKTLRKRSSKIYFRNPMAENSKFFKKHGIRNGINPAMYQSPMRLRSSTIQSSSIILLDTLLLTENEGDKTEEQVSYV
UniProt P40306, whole entry, looked up: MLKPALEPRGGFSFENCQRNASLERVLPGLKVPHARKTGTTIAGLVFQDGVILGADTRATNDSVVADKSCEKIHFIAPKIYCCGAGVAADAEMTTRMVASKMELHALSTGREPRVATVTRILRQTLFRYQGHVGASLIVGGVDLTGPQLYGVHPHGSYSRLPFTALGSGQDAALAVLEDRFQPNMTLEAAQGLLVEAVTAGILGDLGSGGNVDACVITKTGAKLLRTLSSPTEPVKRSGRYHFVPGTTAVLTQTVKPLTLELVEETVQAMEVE
UniProt P49720, whole entry, looked up: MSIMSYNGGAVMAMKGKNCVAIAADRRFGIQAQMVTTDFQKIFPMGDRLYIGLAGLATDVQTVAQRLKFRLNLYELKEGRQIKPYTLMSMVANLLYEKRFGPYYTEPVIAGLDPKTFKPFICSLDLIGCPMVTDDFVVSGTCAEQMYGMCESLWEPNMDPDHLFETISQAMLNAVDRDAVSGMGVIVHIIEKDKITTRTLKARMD
UniProt P31652, whole entry: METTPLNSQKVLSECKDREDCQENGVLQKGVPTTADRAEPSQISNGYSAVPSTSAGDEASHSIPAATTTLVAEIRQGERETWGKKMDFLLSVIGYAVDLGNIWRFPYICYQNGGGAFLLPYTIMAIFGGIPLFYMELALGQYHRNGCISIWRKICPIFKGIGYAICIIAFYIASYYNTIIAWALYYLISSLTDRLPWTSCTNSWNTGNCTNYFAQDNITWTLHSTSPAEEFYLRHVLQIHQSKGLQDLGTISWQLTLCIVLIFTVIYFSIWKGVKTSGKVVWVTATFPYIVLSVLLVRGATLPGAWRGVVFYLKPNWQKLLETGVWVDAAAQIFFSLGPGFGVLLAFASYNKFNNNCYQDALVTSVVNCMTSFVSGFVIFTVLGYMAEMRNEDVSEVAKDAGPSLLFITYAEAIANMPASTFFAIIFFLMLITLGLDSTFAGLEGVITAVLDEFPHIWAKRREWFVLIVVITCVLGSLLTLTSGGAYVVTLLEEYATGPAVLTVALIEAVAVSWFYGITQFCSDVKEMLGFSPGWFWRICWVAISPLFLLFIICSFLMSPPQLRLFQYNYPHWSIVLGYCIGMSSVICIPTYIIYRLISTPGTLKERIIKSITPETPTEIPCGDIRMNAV
UniProt Q9Y5N1, whole entry: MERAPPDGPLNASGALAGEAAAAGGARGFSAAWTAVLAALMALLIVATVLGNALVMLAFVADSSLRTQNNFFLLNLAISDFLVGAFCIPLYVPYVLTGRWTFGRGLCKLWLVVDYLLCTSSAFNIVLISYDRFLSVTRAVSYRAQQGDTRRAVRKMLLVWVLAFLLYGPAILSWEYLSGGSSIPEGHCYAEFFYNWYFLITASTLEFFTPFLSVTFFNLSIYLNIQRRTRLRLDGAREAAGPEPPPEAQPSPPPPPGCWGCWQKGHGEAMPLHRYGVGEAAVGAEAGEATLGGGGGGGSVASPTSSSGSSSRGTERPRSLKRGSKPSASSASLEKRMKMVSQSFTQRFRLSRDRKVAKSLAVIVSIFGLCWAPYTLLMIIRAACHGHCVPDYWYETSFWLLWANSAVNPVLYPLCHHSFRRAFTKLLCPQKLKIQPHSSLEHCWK
UniProt P9WPP7, whole entry: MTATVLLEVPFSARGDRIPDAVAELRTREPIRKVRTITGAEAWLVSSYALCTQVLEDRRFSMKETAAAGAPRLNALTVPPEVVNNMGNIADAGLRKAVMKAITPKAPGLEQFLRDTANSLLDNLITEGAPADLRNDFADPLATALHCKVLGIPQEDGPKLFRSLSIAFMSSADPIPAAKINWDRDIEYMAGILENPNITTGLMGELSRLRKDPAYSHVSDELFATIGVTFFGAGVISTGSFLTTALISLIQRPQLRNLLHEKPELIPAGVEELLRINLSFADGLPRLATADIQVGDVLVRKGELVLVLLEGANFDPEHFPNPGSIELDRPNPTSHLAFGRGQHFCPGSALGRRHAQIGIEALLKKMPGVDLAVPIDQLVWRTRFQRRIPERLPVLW

`CN(C(=O)Cc1ccc(Cl)c(Cl)c1)[C@@H]1CCCC[C@H]1N1CCCC1` gave an EC50 of 59 nM (Trypanosoma brucei; parasite growth).
The Ki of `CCCCCCCCCCCCNC(=O)N[C@H](C(=O)N[C@H]1/C=C/CCNC(=O)/C=C/[C@H](C)NC1=O)C(C)C` is reported as 18 nM (constitutive proteasome, chymotrypsin-like site; enzyme activity).
The EC50 of `CNCCNC(=O)c1cc2c([nH]c3c(C)cccc32)c(-c2ccc(Cl)c(Cl)c2)n1` is reported as ~100 nM (Plasmodium falciparum; SYBR Green I; Dd2; 72 h, asexual blood stage).
For `COc1ccc(OCC2c3cc(OC(C)C)ccc3CCN2C(=O)c2cccc(Cl)c2)cc1` (racemic), “effect on kainate receptors” read “no effect” (kainate receptor; receptor activity).
The Ke of `N[C@@H](Cc1ccc(C(=O)NCCc2ccc(-c3ccccc3)cc2)cc1)C(=O)N1Cc2ccccc2C[C@H]1C(=O)O` is reported as 5380 ± 380 nM (mu opioid receptor; muscle contraction, antagonist; guinea pig ileum).
For `O=c1c2ccc(Oc3ccc(OC(F)(F)F)cc3)cc2[nH]c2cc(F)cc(F)c12`, the EC50 ratio was > 100 fold (Plasmodium falciparum; parasite growth; Tm90-C2B atovaquone-resistant; reference: Tm90-C2B over D6 strain).
`CCCCCCCCCCSCC(P(=O)(O)O)P(=O)(O)O` has an EC50 of 1800 nM (Toxoplasma gondii; growth; tachyzoites).
With `O=C(N[C@@H]1CC[C@@]2(O)[C@H]3Cc4ccc(O)c5c4[C@@]2(CCN3CC2CC2)[C@H]1O5)c1ccncc1F` the Ki was 4.8 ± 0.26 nM (kappa opioid receptor; binding).
The selectivity ratio of `O=C(N[C@@H]1CC[C@@]2(O)[C@H]3Cc4ccc(O)c5c4[C@@]2(CCN3CC2CC2)[C@H]1O5)c1ccnc(Br)c1` is reported as 3.5 (Kappa-type opioid receptor (Oprk1, Mus musculus, UniProt P33534); reference: Ki µ over Ki κ).
With `Nc1nc(Cl)nc2c1ncn2[C@H]1[C@H](O)[C@H](O)[C@]2(CO)C[C@H]12` the inhibition was 50% (5-hydroxytryptamine receptor 2B (HTR2B, Homo sapiens, UniProt P41595); 10 µM, with: [3H]LSD).
`CC(=O)N1CCC[C@@H]1C(=O)N[C@@H](C)C(=O)N[C@@H](Cc1ccccc1)B(O)O` has an IC50 of > 10 µM (Proteasome subunit beta type-10 / Proteasome subunit beta type-3 (Homo sapiens, UniProt P40306+P49720); β2i activity, inhibitor).
`Clc1ccc(COC2(c3ccccc3)CC3CCC(C2)N3)cc1Cl` (stereo not shown) gave a selectivity ratio of 258 (Sodium-dependent serotonin transporter (Slc6a4, Rattus norvegicus, UniProt P31652); reference: Ki DAT over Ki SERT).
For `Ic1ccc(CSCn2ccnc2)cc1`, the Ki was > 10000 nM (Histamine H3 receptor (HRH3, Homo sapiens, UniProt Q9Y5N1); binding; with: [3H]-Nα-methylhistamine).
The Ki of `O=C(Cc1cccs1)NC(B(O)O)c1cccc(C(=O)O)c1` (stereo not shown) is reported as 1 nM (Escherichia coli AmpC β-lactamase; inhibitor).
`COc1ccc(NC(=O)CSc2nc3c(N)ncnc3[nH]2)cc1OC` gave a Ki of 5 nM (ENPP1 (human); inhibitor; pH 9, with: p-nitrophenyl-TMP substrate).
The Ke of `N[C@@H](Cc1ccc(O)cc1)C(=O)N1Cc2ccccc2C[C@H]1CN[C@@H](CC1CCCCC1)C(=O)N[C@@H](Cc1ccccc1)C(=O)O` is reported as 0.175 ± 0.025 nM (delta opioid receptor; muscle contraction, antagonist; mouse vas deferens).
For `c1cn(Cc2ccc(-c3ccc4c(c3)OCCO4)cc2)cn1`, the Kd was 5.3 ± 0.6 µM (Mycocyclosin synthase (cyp121, Mycobacterium tuberculosis, UniProt P9WPP7)).
With `O=C(c1ccccc1)N(O)CCCP(=O)(O)O` the IC50 was > 25 µM (Mycobacterium tuberculosis DXR; enzyme activity, inhibitor).
`NCCNCCSc1ccccc1` has a short-term stability of 96.1 ± 2.91 % remaining (urine; 100 µg/mL, 24 h, room temperature).
With `O=C(Cc1ccc(Cl)c(Cl)c1)N1CC[C@H]2CC[C@@H](N3CCCC3)[C@@H]1C2` the Ki was 18 nM (kappa opioid receptor; binding).
`CCC(=O)Nc1c(NC[C@H](O)[C@H](O)[C@H](O)CO)[nH]c(=O)[nH]c1=O` gave a Ks of 3.2 ± 0.3 µM (Bacillus subtilis lumazine synthase; substrate; pH 7.0).
For `c1ccc2c[n+](CCCCCCCC[n+]3ccc4ccccc4c3)ccc2c1`, the IC50 was 1.9 ± 0.2 µM (muscle-type nicotinic acetylcholine receptor; acetylcholine-evoked current, antagonist; with: acetylcholine 100 µM).

Repeated from above:
`Clc1ccc(COC2(c3ccccc3)CC3CCC(C2)N3)cc1Cl` (stereo not shown) gave a selectivity ratio of 258 (Sodium-dependent serotonin transporter (Slc6a4, Rattus norvegicus, UniProt P31652); reference: Ki DAT over Ki SERT).
For `Ic1ccc(CSCn2ccnc2)cc1`, the Ki was > 10000 nM (Histamine H3 receptor (HRH3, Homo sapiens, UniProt Q9Y5N1); binding; with: [3H]-Nα-methylhistamine).
The Ki of `O=C(Cc1cccs1)NC(B(O)O)c1cccc(C(=O)O)c1` (stereo not shown) is reported as 1 nM (Escherichia coli AmpC β-lactamase; inhibitor).
